Measurements from different studies.
Each line is one published result; not all experiments were run side by side. ± marks the error that the study gave.
Chain of UniProt P34947 (whole entry, looked up): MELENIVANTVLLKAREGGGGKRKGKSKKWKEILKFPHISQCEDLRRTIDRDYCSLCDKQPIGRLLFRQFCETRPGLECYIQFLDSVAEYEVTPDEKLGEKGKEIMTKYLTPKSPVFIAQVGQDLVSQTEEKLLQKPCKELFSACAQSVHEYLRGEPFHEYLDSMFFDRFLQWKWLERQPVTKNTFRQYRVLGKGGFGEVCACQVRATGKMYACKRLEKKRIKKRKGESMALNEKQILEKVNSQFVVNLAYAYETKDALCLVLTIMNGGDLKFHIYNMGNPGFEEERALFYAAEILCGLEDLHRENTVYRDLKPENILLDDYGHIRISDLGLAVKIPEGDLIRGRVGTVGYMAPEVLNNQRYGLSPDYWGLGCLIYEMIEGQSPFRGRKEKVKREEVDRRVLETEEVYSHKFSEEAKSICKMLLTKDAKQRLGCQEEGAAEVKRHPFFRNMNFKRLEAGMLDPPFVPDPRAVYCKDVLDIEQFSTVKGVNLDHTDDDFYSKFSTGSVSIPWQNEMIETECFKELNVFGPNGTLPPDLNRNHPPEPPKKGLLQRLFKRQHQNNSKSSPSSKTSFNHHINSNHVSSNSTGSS

C[C@H](c1ccccc1)N1C(=O)C2=Nc3ccc(F)cc3CN2C1=S
IC50 (CCRF-CEM; resazurin; 72 h): 0.52 ± 0.04 µM

Cc1ccnc(-c2cc(C)ccn2)c1
IC50 (L02; cell growth or viability, MTT; 48 h): > 50 µM

CN1CCCNC(=O)c2cccc(c2)C(=O)NCCCN(C)CCCNc2cccc3c2C(=O)c2cccc(c2C3=O)NCCC1
log2 fold change (SAS; RNA-Seq, refers to: SETD4 mRNA; 1 µM, 6 h; relative to: untreated cells): -1.06

CC(C)(C)c1cnc(CSc2cnc(NC(=O)C3CCN(C(=O)CCCCCCN4Cc5cc6c(cc5C4)C(=O)N(C4CCC(=O)NC4=O)C6=O)CC3)s2)o1 (stereo not shown)
IC50 (REH; cell growth or viability, MTT): 0.0403 µM

N#Cc1c(N)nc2c(c1-c1cccs1)Cc1cc(O)ccc1-2
IC50 (HuT78; cell growth or viability, ATP luminescence): 31.4 µM

COc1ccc(CC[C@H]2OC(=O)[C@@H]3CCCCN3C(=O)C(=O)C(C)(C)COC(=O)C=CCCN(C)C(=O)[C@H](CC(C)C)NC(=O)[C@@H](Cc3ccccc3)N(C)C(=O)[C@@H]3CCCN3C(=O)[C@H](CC(C)C)N(C)C(=O)CCC(=O)Nc3cccc2c3)cc1OC
IC50 (HUVEC; thymidine uptake, inhibitor): > 20 µM

C[C@H](c1ccccc1)N1C(=O)C2=Nc3cc(Cl)ccc3CN2C1=S
IC50 (CCRF-CEM; cell growth or viability, resazurin; 72 h): 0.228 µM

Cc1nn(-c2cccc(N)c2)c(=O)c2cnc(Nc3ccc(N4CCNCC4)cc3)nc12
IC50 (GRK5 (Homo sapiens, UniProt P34947); enzyme activity, inhibitor): > 10 µM

O=C1/C(=N\c2ccc(Cl)cc2Br)c2ccccc2N1Cc1ccccc1 (mixture of isomers)
IC50 (L02; cell growth or viability, MTT; 48 h): 19.4 µM

O=C(CCCCCONC(=O)c1nc(-c2ccc(Cl)s2)cs1)NO
IC50 (neonatal foreskin fibroblasts; cytotoxicity, sulforhodamine B; 72 h): 2.95 µM

C=CC(=O)N1C[C@H](C)N(c2nc(OC[C@@]34CCCN3C[C@H](F)C4)nc3c(F)c(-c4ccc(F)c5sc(N)c(C#N)c45)c(C(F)(F)F)cc23)C[C@H]1C
IC50 (Ba/F3 expressing KRAS G12C/Q61H; cell viability; 72 h): 0.0002 µM

CC[C@H](C)[C@H](NC(=O)[C@H](CCCCN)NC(=O)[C@H]1CCC[C@@H]1NC(=O)[C@H](CC(C)C)NC(=O)CN)C(=O)N[C@H](CC(=O)N[C@@H](CCCCN)C(=O)N[C@@H](CCCCN)C(=O)N[C@H]1CCC[C@@H]1C(=O)N[C@@H](CC(C)C)C(=O)N[C@@H](CCCCN)C(=O)N[C@H](CC(=O)N[C@@H](Cc1ccccc1)C(N)=O)CC(C)C)[C@@H](C)CC
IC50 (HUVEC; cytotoxicity): 8 µg/mL

CC(C)=CC1OC(C)(C)C2C=C3C(=O)C(Cl)=CC(O)C3C3C(O)C4OC4C(=O)C132 (stereo not shown)
IC50 (SKGT4; cell growth or viability, MTS): 5.9 µM

Cc1ncsc1-c1ccc(C(C)NC(=O)C2CC(O)CN2C(=O)C(NC(=O)CCCCCCCCCCN2CCCC(Nc3ncc(Cl)c(Nc4ccccc4S(=O)(=O)C(C)C)n3)C2)C(C)(C)C)cc1 (stereo not shown)
log2 fold change (22Rv1; RNA-seq, refers to: TRIP6 mRNA; concentration not given; relative to: DMSO): -2.31

COc1ccc(CC[C@H]2OC(=O)[C@@H]3CCCCN3C(=O)C(=O)C(C)(C)COC(=O)C=CCCN(C)C(=O)[C@H](CC(C)C)N(C)C(=O)[C@@H]3CCCN3C(=O)[C@@H](Cc3ccccc3)N(C)C(=O)[C@H](Cc3ccccc3)NC(=O)CCC(=O)Nc3cccc2c3)cc1OC
IC50 (HUVEC; thymidine uptake, inhibitor): > 20 µM

Cn1ncc2cc(-c3cncc(Cl)c3N3CCC4(CCNC4=O)CC3)ccc21
log2 fold change (LS174T; gene expression, microarray, refers to: GZMB mRNA; concentration not given, 4 h; relative to: untreated cells): -1.74

O=C(CCc1ccco1)N1C(=O)C2(NC(c3ccc(F)cc3)C3(C(=O)Nc4ccccc43)N2Cc2ccc(F)cc2)c2ccccc21 (stereo not shown)
IC50 (L02; cell growth or viability, MTT; 48 h): > 100 µM

Cc1c(C)c2cccnc2c2ncccc12.Cc1ccc2c(Cl)cc(Cl)c([O-])c2n1.Cc1ccc2c(Cl)cc(Cl)c([O-])c2n1.[Co+2]
IC50 (HL-7702 normal hepatocytes; cell viability, MTT; 48 h): 59 ± 1.03 µM

CC[C@H](C)[C@H](NC(=O)[C@H](CCCCN)NC(=O)[C@H]1CCC[C@@H]1NC(=O)[C@H](CC(C)C)NC(=O)CN)C(=O)N[C@@H](C)CC(=O)N[C@@H](CCCCN)C(=O)N[C@@H](CCCCN)C(=O)N[C@H]1CCC[C@@H]1C(=O)N[C@H](C(=O)N[C@@H](CCCCN)C(=O)N[C@@H](C)CC(=O)N[C@@H](Cc1ccccc1)C(N)=O)[C@@H](C)CC
IC50 (HUVEC; cytotoxicity): 461 µg/mL

C=CC(=O)N1CCCC(n2c(=O)c3ncccc3n(Cc3ccc(Oc4ccccc4)cc3)c2=O)C1 (stereo not shown)
IC50 (AM-HLH; cell proliferation, MTT; 72 h): 18 µM

CCOc1cncc(-c2ccc(NC(=O)C3(c4ccnc(NS(=O)(=O)C5CC5)n4)CCOCC3)nc2)n1
IC50 (RD-ES; cell growth, CellTiter-Glo; 72 h): 10 µM

Cn1ncc(-c2ccc3c(=O)[nH]nc(CN)c3c2)c1-c1c(F)c(Cl)cc(OC2CC2)c1C#N
IC50 (CoC1/DDP; cell viability, inhibitor, CellTiter-Glo; 120 h): 2.12 µM

NC(=O)c1ccc(-c2ccccc2Cl)c2c3c([nH]c12)CCC(N)C3 (stereo not shown)
IC50 (HGC-27; cell growth or viability; 96 h): 0.0221 µM

COc1ccc(CC[C@H]2OC(=O)[C@@H]3CCCCN3C(=O)C(=O)C(C)(C)COC(=O)C=CCCN(C)C(=O)[C@H](CC(C)C)N(C)C(=O)[C@H]3CCCN3C(=O)[C@H](Cc3ccccc3)NC(=O)[C@H](Cc3ccccc3)NC(=O)CCC(=O)Nc3cccc2c3)cc1OC
IC50 (HUVEC; thymidine uptake, inhibitor): 0.182 ± 0.031 µM

CNS(=O)(=O)Nc1nccc(Cc2c(C)c3ccc(Oc4ncccc4F)cc3oc2=O)c1F
IC50 (MDA-MB-453; cell viability; 7 days): 0.292 µM

C[C@H](c1ccccc1)N1C(=O)C2=Nc3cc([N+](=O)[O-])ccc3CN2C1=S
IC50 (CCRF-CEM; cell growth or viability, resazurin; 72 h): 0.14 µM

Cc1cnc2nc1Nc1cccc(c1)COCCCCOCc1cc(ccc1OCCN1CCCC1)N2
IC50 (HEL 92.1.7 JAK2 V617F; cell growth, CCK-8): 6.57 µM

O=Cc1ccc(-c2ccc(O)cc2)c(C(=C2C=CC(=O)C=C2)c2ccc(O)cc2)c1C#Cc1ccc(O)cc1
IC50 (HUVEC; cell growth or viability, MTT; 48 h): > 50 µM

Cc1nc(=S)[nH]c(C)c1/N=N/c1nnc(S)s1
IC50 (Vero; MTT; 72 h): 20.9 ± 1.73 µg/mL

C=CC(=O)Nc1cccc(Cn2ncc3cnc(Nc4cnn(CCOC)c4)nc32)c1
percent of control (DRAK1 human; binding, KINOMEscan; 100 nM; lower = stronger binding): 2%

COC1CN([C@H]2CC[C@H]([C@@]3(C)Oc4c(Cl)cc(C(=O)NCc5c(SC)cc(C)[nH]c5=O)c(C)c4O3)CC2)C1
log2 fold change (RNA-seq, refers to: SERPINI1 mouse homolog; mouse, HT-1376 xenograft, whole blood; dose not given; relative to: vehicle): 0.548

O=C(O)C(CO)NCc1cc(Cl)c(OCc2cccc(-c3ccccc3)c2Br)cc1OCc1cccnc1 (stereo not shown)
IC50 (human Hepatocyte; cell growth or viability, MTT): > 10 µM

NCCOc1cc(NC(=O)c2cc(OCc3cn([C@H]4O[C@@H](CO)[C@H](O)[C@@H](O)[C@@H]4O)nn3)cc(C(=O)Nc3cc(OCCN)c4ccccc4n3)n2)nc2ccccc12
IC50 (U2OS; cell growth or viability, ATP luminescence; 72 h): > 40 µM

Cc1ccc(-c2ccc(C)cn2)nc1
IC50 (L02; cell growth or viability, MTT; 48 h): > 50 µM

CC(C)c1ccc2oc3nc(N)c(C(=O)O)cc3c(=O)c2c1
IC50 (ARPE-19; cytotoxicity, CCK-8; 48 h): > 100 µM

CC1(C)CCC(CN2CCN(c3ccc(C(=O)NS(=O)(=O)c4ccc(NCC5CCOCC5)c([N+](=O)[O-])c4)c(Oc4cnc5[nH]ccc5c4)c3)CC2)=C(c2ccc(Cl)cc2)C1
IC50 (RS4-11; sub-G0/G1 accumulation, PI staining, FACS; 24 h): 0.0052 ± 0.0016 µM

Cc1nc(Nc2ccc3c(c2)/C(=C/c2cn(C)c4ccccc24)C(=O)N3C)c2ccccc2n1
IC50 (H22; cell growth or viability, MTT): 6.93 µM

CCCC(CCC)C(=O)[O][Pt]([NH2])([NH2])([Cl])([Cl])[O]C(C)=O
IC50 (BCPAP; cell growth or viability, MTT; 72 h): 3.06 µM

COc1ccc(CC[C@H]2OC(=O)[C@@H]3CCCCN3C(=O)C(=O)C(C)(C)COC(=O)C=CCCN(C)C(=O)CN(C)C(=O)[C@H]3CCCN3C(=O)[C@H](CC(C)C)N(C)C(=O)[C@H](Cc3ccccc3)NC(=O)CCC(=O)Nc3cccc2c3)cc1OC
IC50 (HUVEC; thymidine uptake, inhibitor): > 20 µM

CCCc1cc2cc(-n3nc(CC)c4c3CC(C)(C)CC4=O)cc(N3CCC(O)CC3)c2c(=O)[nH]1
IC50 (SK-OV-3; cell growth or viability, MTS): 3.41 µM

CNC(NN=Cc1ccc([N+](=O)[O-])o1)=[S+][Au-][Cl]
IC50 (IMR-90; cell growth or viability, resazurin): > 100 µM

COc1ccc(CC[C@H]2OC(=O)[C@@H]3CCCCN3C(=O)C(=O)C(C)(C)COC(=O)C=CCCN(C)C(=O)[C@H](Cc3ccccc3)NC(=O)[C@@H](Cc3ccccc3)N(C)C(=O)[C@H]3CCCN3C(=O)[C@H](CC(C)C)N(C)C(=O)CCC(=O)Nc3cccc2c3)cc1OC
IC50 (HUVEC; thymidine uptake, inhibitor): > 20 µM

O=C1c2c(O)ccc(O)c2C(=O)c2c(NCCNCCO)ccc(NCCNCCO)c21
IC50 (ARPE-19; cytotoxicity, CCK-8; 48 h): 0.031 ± 0.012 µM

C=C1CC[C@H](OCCCNC(=O)CCOCCOCCOCCOCCOCCOCCOCCOCCOCCOCCOCCOCCOCCOCCOCCOCCOCCOCCOCCOCCOCCOCCOCCOCCOCCOCCOCCOCCOCCOCCOCCOCCOCCOCCOCCOCCNC(=O)CCN2C(=O)CC(SC[C@H](NC(=O)[C@H](Cc3ccccc3)NC(=O)[C@H](CC(N)=O)NC(=O)[C@H](Cc3c[nH]cn3)NC(=O)[C@@H](NC(=O)[C@H](CC(=O)O)NC(=O)[C@H](CCC(N)=O)NC(=O)[C@H](CC(C)C)NC(=O)[C@H](CCCCN)NC(=O)[C@H](CCCCN)NC(=O)[C@H](CCCNC(=N)N)NC(=O)[C@H](CC(C)C)NC(=O)[C@H](Cc3c[nH]c4ccccc34)NC(=O)[C@H](CCC(=O)O)NC(=O)[C@@H](NC(=O)[C@H](CCCNC(=N)N)NC(=O)[C@H](CCC(=O)O)NC(=O)[C@H](CCSC)NC(=O)[C@H](CO)NC(=O)[C@H](CC(N)=O)NC(=O)[C@H](CC(C)C)NC(=O)[C@H](Cc3c[nH]cn3)NC(=O)[C@H](CCCCN)NC(=O)CNC(=O)[C@H](CC(C)C)NC(=O)[C@H](CC(N)=O)NC(=O)[C@H](Cc3c[nH]cn3)NC(=O)[C@H](CCSC)NC(=O)[C@H](CC(C)C)NC(=O)[C@H](CCC(N)=O)NC(=O)[C@@H](NC(=O)[C@H](CCC(=O)O)NC(=O)[C@H](CO)NC(=O)[C@@H](NC(=O)[C@@H](N)CO)C(C)C)[C@@H](C)CC)C(C)C)C(C)C)C(=O)O)C2=O)C/C1=C/C=C1\CCC[C@]2(C)[C@@H]([C@H](C)CCCC(C)(C)O)CC[C@@H]12 (stereo partly shown)
Tmax (male Sprague-Dawley rat, plasma; subcutaneous, 100 µg/kg, single dose): 1.33 h

Nc1ncc(-c2cc(-c3cnn(CC(F)(F)F)c3)ncc2F)nc1C(=O)NC1CNCC(F)C1 (stereo not shown)
remaining binding (RET; KINOMEscan; 1 µM; relative to: DMSO control): 37%

COc1ccc(CC[C@H]2OC(=O)[C@@H]3CCCCN3C(=O)C(=O)C(C)(C)COC(=O)C=CCCN(C)C(=O)[C@H](C)NC(=O)[C@@H](Cc3ccccc3)N(C)C(=O)[C@@H]3CCCN3C(=O)[C@H](CC(C)C)N(C)C(=O)CCC(=O)Nc3cccc2c3)cc1OC
IC50 (HUVEC; thymidine uptake, inhibitor): 0.478 ± 0.065 µM

CC(C)c1ccc(N(C)c2ccc3c(c2)OCC[C@H]3CNc2cnccc2C(=O)O)cc1
IC50 (Daudi; cell growth or viability, ATP luminescence; 7 days): 0.0149 µM

O=C1C2=Nc3ccccc3CN2C(=S)N1[C@H]1CCCc2ccccc21
IC50 (CCRF-CEM; cell growth or viability, resazurin; 72 h): 25.1 µM

COc1ccc(CC[C@H]2OC(=O)[C@@H]3CCCCN3C(=O)C(=O)C(C)(C)COC(=O)C=CCCN(C)C(=O)[C@H](CC(C)C)N(C)C(=O)[C@H]3CCCN3C(=O)[C@H](Cc3ccccc3)N(C)C(=O)[C@H](CCc3ccccc3)NC(=O)CCC(=O)Nc3cccc2c3)cc1OC
IC50 (HUVEC; thymidine uptake, inhibitor): > 20 µM

Repeated from above:
Cc1nn(-c2cccc(N)c2)c(=O)c2cnc(Nc3ccc(N4CCNCC4)cc3)nc12
IC50 (GRK5 (Homo sapiens, UniProt P34947); enzyme activity, inhibitor): > 10 µM

COC1CN([C@H]2CC[C@H]([C@@]3(C)Oc4c(Cl)cc(C(=O)NCc5c(SC)cc(C)[nH]c5=O)c(C)c4O3)CC2)C1
log2 fold change (RNA-seq, refers to: SERPINI1 mouse homolog; mouse, HT-1376 xenograft, whole blood; dose not given; relative to: vehicle): 0.548

COc1ccc(CC[C@H]2OC(=O)[C@@H]3CCCCN3C(=O)C(=O)C(C)(C)COC(=O)C=CCCN(C)C(=O)[C@H](CC(C)C)NC(=O)[C@@H](Cc3ccccc3)N(C)C(=O)[C@@H]3CCCN3C(=O)[C@H](CC(C)C)N(C)C(=O)CCC(=O)Nc3cccc2c3)cc1OC
IC50 (HUVEC; thymidine uptake, inhibitor): > 20 µM
